Published values from different studies.
Numbers after ± are the reported error.

SMILES | assay | test system | setting | Cmax
CCN1CCN(Cc2ccc(Nc3ncc(F)c(-c4cc(F)c5nc6n(c5c4)[C@H](C)CCC6)n3)nc2)CC1 |  | human, plasma | 50 mg single dose, mean | 41.3 ng/mL
N#Cc1cc(NC(=O)[C@H]2c3ccccc3C(=O)N(CC(F)(F)F)[C@@H]2c2cccnc2)ccc1F |  | human, plasma | oral, 150 mg, median | 242 ng/mL
FC(F)(F)c1ccc(CNc2ccc(Cc3c[nH]c4ncc(Cl)cc34)cn2)cn1 |  | human, plasma | oral, dose not given, added: itraconazole | 6310 ng/mL
CCN(CCO)CCCC(C)Nc1ccnc2cc(Cl)ccc12 (centres unmarked) | population PK model | human patients, whole blood | oral, 200 mg, steady state | 795 ng/mL
Cn1nnc2c(C(N)=O)ncn2c1=O |  | human patients, plasma | oral, 55 mg/m2, day 5, dose level DL6, median, added: talazoparib 600 µg/m2 | 3560 ng/mL
N#CCNC(=O)c1ccc(-c2ccnc(Nc3ccc(N4CCOCC4=O)cc3)n2)cc1 |  | healthy human volunteers, plasma | 200 mg momelotinib, day 1, fasted, momelotinib alone | 588 ng/mL
CC(=O)c1cc(C(=O)N[C@@H](C)Cn2ccc(-c3ccc(C#N)c(Cl)c3)n2)[nH]n1 |  | human, fasted, plasma | oral, 300 mg 14C-darolutamide solution, geometric mean | 11700 ng/mL
COc1cc2ncnc(Nc3ccc(F)c(Cl)c3)c2cc1NC(=O)/C=C/CN1CCCCC1 |  | human, moderate hepatic impairment (Child-Pugh), plasma | single dose, geometric mean, total drug | 10.1 ng/mL
C[C@H](CCC(=O)O)[C@H]1CC[C@H]2[C@@H]3[C@H](O)C[C@@H]4C[C@H](O)CC[C@]4(C)[C@H]3CC[C@]12C |  | human, plasma | concentration not given, endogenous baseline diurnal | 1220 ± 284 nM
CC(=O)O.NC(=O)c1cnc(N[C@@H]2CCCC[C@@H]2N)nc1Nc1cccc(-n2nccn2)c1 |  | human, plasma | oral, 33 mg once daily | 61.4 ng/mL
Cl.[2H]C([2H])([2H])CC(=O)c1cnc(NC(=O)C2CC2)cc1Nc1cccc(-c2ncn(C([2H])([2H])[2H])n2)c1OC | geometric mean | human | oral, 20 mg twice daily, day 7, fed, liquid, multiple dose | 203 ng/mL
Cc1ccc(C(=O)NC2CC2)cc1-n1ncc(C(=O)c2cccc(C#N)c2)c1N |  | healthy human | oral, 50 mg single, mean | 406 ng/mL
Nc1ccn([C@@H]2O[C@H](CO)[C@@H](O)C2(F)F)c(=O)n1 | HPLC-UV | human, plasma | intravenous, 1000 mg/m^2, mean, before paricalcitol | 7250 ng/mL
Cc1cn(C(=O)c2c(-c3c(Cl)cc(Cl)cc3Cl)noc2C(C)(C)F)c2cccc(/C=C/C(=O)O)c12 |  | human patients | 1000 mg bid, cycle 8 day 1 | 38300 ng/mL
Cn1c(=O)oc2ccc(-c3ccc(C[C@@H](C#N)NC(=O)[C@@H]4CNCCCO4)cc3)cc21 |  | human, normal renal function, plasma | oral, 25 mg single dose, mean, fasted | 168 ng/mL
Cc1cc(C)c(CNC(=O)c2cc(Cl)c3c(c2C)O[C@@](C)([C@H]2CC[C@H](N(C)C)CC2)O3)c(=O)[nH]1 | geometric LS mean | healthy male humans, plasma | oral, dose not given, added: itraconazole | 307 ng/mL
CCCOc1ccc([C@H]2CNC(=O)N2c2ccc3[nH]cnc3c2)cc1 |  | human elderly fasted, CSF | oral, 500 mg twice daily tablet, day 11, geometric mean | 66.1 ng/mL
CO[C@@H]1[C@H](OC(=O)N2CC(CCN3CCOCC3)C2)CC[C@]2(CO2)[C@H]1[C@@]1(C)O[C@@H]1CC=C(C)C |  | humans, plasma | subcutaneous, 0.2 mg twice weekly, fifth dose | 0.51 ± 0.17 ng/mL
NC1(C(=O)N[C@@H](CCO)c2ccc(Cl)cc2)CCN(c2ncnc3[nH]ccc23)CC1 |  | human, plasma | 640 mg twice daily, day 2, 2 days on, 5 days off | 2480 ng/mL
Cc1nc(-c2ccc(OCC(C)C)c(C#N)c2)sc1C(=O)O |  | human, plasma | oral, 20 mg once daily, added: verinurad 10 mg | 540 ng/mL

Excerpt of the above:
SMILES | assay | test system | setting | Cmax
Cn1c(=O)oc2ccc(-c3ccc(C[C@@H](C#N)NC(=O)[C@@H]4CNCCCO4)cc3)cc21 |  | human, normal renal function, plasma | oral, 25 mg single dose, mean, fasted | 168 ng/mL
CC(=O)O.NC(=O)c1cnc(N[C@@H]2CCCC[C@@H]2N)nc1Nc1cccc(-n2nccn2)c1 |  | human, plasma | oral, 33 mg once daily | 61.4 ng/mL
